Assay results pooled from the literature.
Lines come from different studies, so protocols differ. “And” joins repeats or separate records; there may be more than shown. ± gives the spread as reported.

O=C1N(Cc2ccccc2Cl)c2ccccc2C12NN=C(c1ccccc1)S2 (stereo not drawn)  viability loss (NSCLC cells; MTT; concentration not given, 48 h): 80 to 90%
COc1cnc2cccc(N3CCc4c(cc(Cn5ccnc5C)cc4-c4cn(C)nc4C(F)(F)F)C3=O)c2c1  EC50 (BT-474; cell growth, inhibitor; 120 h): 21900 nM
COc1cc(/C=C/C(=O)N2CCC=CC2=O)cc(OC)c1OC  mRNA level (MDA-MB-468; qRT-PCR, item: SOD1; 30 µM, 6 h; baseline: time zero): 135 ± 11.2%
CCN(Cc1ccccc1)c1ccc(CO)c(Cl)c1  IC50 (RBE; cell viability, CellTiter-Glo): 120 nM
CCCCN1C[C@H](O)[C@@H](O)[C@@H](O)[C@H]1CO  IC50 (sample F patient fibroblasts; Gb3 level lowering, LC-MS/MS, item: Gb3 d18:1/22:0; 216 h): 10400 nM
COc1cc(Oc2ccnc3cc(OC)c(OC)cc23)ccc1NC(=O)NC(C)c1nccs1 (stereo not drawn)  beat amplitude (hiPSC-derived cardiomyocytes (iCell); impedance (xCELLigence Cardio); concentration not given, 2 h; baseline: control): 99%
CCn1cc(-c2cc(Cn3ccnc3)cc3c2CCN([C@H](c2cc(OC)ccn2)C2CC2)C3=O)c(C(F)(F)F)n1  EC50 (NCI-H1373; cell growth, inhibitor; 120 h): > 30000 nM
CC/C(=N\NC(=O)NCc1cccc(O)c1)c1ccc(O)c(C)c1O  log ratio (SK-OV-3; gene expression, microarray, item: EDN1; 10 µM, 24 h; baseline: DMSO): 4.61
C=CC1=C(C)c2cc3[n-]c(cc4nc(cc5[n-]c(cc1n2)c(C)c5C=C)C(C)=C4CCC(=O)O)c(CCC(=O)O)c3C.[Zn+2]  fold change (SH-SY5Y; RNA-seq, item: EVA1A mRNA; 5 µM, 5 h; baseline: untreated cells): 1.94
CCn1cc(-c2cc(Cn3ccoc3=N)cc3c2CCN([C@@H](C)c2cc(OC)ccn2)C3=O)c(C(F)(F)F)n1  EC50 (TEN; cell growth; 120 h): 5130 nM
Cc1cc(C)n(-c2nc(-c3ccc(Cl)cc3)c3c(NC(=O)c4ccccc4)nnc-3[nH]2)n1  cell growth (NCI-H322M; SRB; 10 µM, NCI60 single-dose screen; baseline: untreated): 107%
C=Cc1c(C)c2cc3nc(c(CC(=O)O)c4[nH]c(cc5nc(cc1[nH]2)C(C)=C5CC)c(C)c4C(=O)O)[C@@H](CCC(=O)O)[C@@H]3C  cell motility (4T1; wound healing; concentration not given, laser irradiation): 46.3% and 44.6% and 39.1%
Nc1cccc2c1C(=O)N(C1CCC(=O)NC1=O)C2=O (stereo not drawn)  surface marker level (RPMI-8226; flow cytometry, item: CD36; concentration not given; baseline: comparator compound alone): 30.5%
Cn1cc(Nc2nccc(-c3ccc4c(c3)CN(C3COC3)CC[C@H]4NC(=O)c3cn(C(C)(C)C)nn3)n2)cn1  number of upregulated genes (human B cells; 100 nM, 64 h, stimulation-upregulated genes, together with: CpG ODN2006): 0
Cc1cccc(-c2[nH]c(CNc3ccccc3F)nc2-c2ccc3ncnn3c2)n1  viability (MM1.S; XTT; 0.6 µM; baseline: untreated): 82%
NC(=O)NOCCCCCCCCCCCCCCCC[P+](c1ccccc1)(c1ccccc1)c1ccccc1.O=C([O-])C(F)(F)F  cell confluence (HCT-116; cell growth, live-cell imaging; 2 µM, control at 90% confluence): 6.56%
COc1cccc(Cn2nc(-c3ccc(CO)o3)c3ccccc32)c1  IC50 (RBE; cell viability, CellTiter-Glo): 460 nM
NC(=O)NOCCCCCCCCCCCC[P+](c1ccccc1)(c1ccccc1)c1ccccc1.O=C([O-])C(F)(F)F  cell confluence (HCT-116; cell growth, live-cell imaging; 2.5 µM, control at 90% confluence): 15.6 ± 1.06%
COc1nc(NCc2cn(-c3ccc(C(=O)Nc4ccccc4)cc3)nn2)nc(OC)n1  apoptotic cells Total (HCT-116; annexin V-FITC/PI; IC50, 24 h): 30.1%
Cc1ccc(Cn2nc(-c3ccc(CO)o3)c3ccccc32)cc1  IC50 (RBE; cell viability, CellTiter-Glo): 1680 nM
CCOC(=O)Nc1ccc(NCc2ccc(F)cc2)nc1N  IP1 accumulation increase (BV-2; 50 µM, 1.5 h): 6%
Nc1ncnc2c1ncn2[C@@H]1O[C@H](CO)[C@@H](O)[C@H]1O  log2 fold change (activated human T cells; item: adenine; 50 µM; baseline: DMSO): 1.7 and 0.8 and 0.7
CCn1c2ccc(CNCCOCCOCCOCCC(=O)NCCOc3ccc(CCc4nc5cc(-c6c(C)noc6C)ccc5n4CCN4CCOCC4)cc3F)cc2c2ccc(-c3cc(C)cs3)cc21  TNFRSF10A mRNA level (NCI-H1299 expressing p53 Y220C; RT-qPCR; 3 µM, 24 h; baseline: DMSO): > 2 fold
Cc1c(C)c2c(c(C)c1O)CCC(C)(COc1ccc(CC3SC(=O)NC3=O)cc1)O2 (stereo not drawn)  point of departure (HepG2; mitochondrial ROS; 1 h, distribution mode 1): 0.0741 µM
Cc1cnc(NC2CCOCC2)nc1-n1cnc(C(=O)NC(CN)c2cc(F)cc(Cl)c2)c1 (stereo not drawn)  G2 phase cells (Rec1; flow cytometry; 1 µM, 24 h): 22.7%
NC(=O)NOCCCCCCCCCCCCCCCCCCCC[P+](c1ccccc1)(c1ccccc1)c1ccccc1.O=C([O-])C(F)(F)F  cell confluence (HCT-116; cell growth, live-cell imaging; 1 µM, control at 90% confluence): 4.2 ± 0.47%
Cc1nn(-c2c(F)cccc2Br)c(C)c1C(=O)Nc1ccc2ccccc2n1  inhibition (Wnt-HEK293; Wnt/β-catenin signalling, inhibitor, luciferase reporter; 1 µM): > 70%
CC(C)n1nc(-c2cc3cc(O)ccc3[nH]2)c2c(N)ncnc21  cell index (hiPSC-derived cardiomyocytes (iCell); impedance; concentration not given, 24 h; baseline: control): 91%
CCN(CC)CCCC(C)Nc1ccnc2cc(Cl)ccc12 (stereo not drawn)  funny current (hiPSC-derived cardiomyocytes; perforated patch voltage clamp; 5 µM, together with: hyperpolarizing step to -120 mV): -15.1 pA and -23.7 pA and -48.6 pA
COc1ccc(-n2nc(C(C)=O)s/c2=N\N=C(/C)c2ccc(NC(=O)c3ccc(Cl)cc3)cc2)cc1  viability (HepG2; 0.078 µM): 84%
C[C@H](Nc1ccc2c(c1)OCCn1cc(N3C(=O)OC[C@H]3C(F)F)nc1-2)C(N)=O  Hill coefficient GR curve (EFM-19; cell growth, CellTiter-Glo; 120 h): 1.23
Cn1cc(-c2ccc(-c3cncc(Cl)c3N3CCC4(CCNC4=O)CC3)cc2)cn1  log2 fold change (COLO 205; gene expression, microarray, item: ARHGEF39 (C9orf100) mRNA; concentration not given, 2 h; baseline: untreated cells): -2.46
O=C1CC[C@H](N2Cc3cc(N4CCN(CC5CCN(c6ccc([C@@H]7c8ccc(O)cc8CC[C@@H]7c7ccccc7)cc6)CC5)CC4)ccc3C2=O)C(=O)N1  GI50 (T47D expressing ESR1 D538G; cell growth, CellTiter-Glo; 120 h): 5.7 nM
O=P1(C2CCCCC2)CCCCC1  early apoptotic cells (SW-620; annexin V/PI flow cytometry; IC50, 72 h): 4.75%
O=C(/C=C/C=C/C=C/C1CCCCC1)NC1=C[C@@](O)(/C=C/C=C/C=C/C(=O)NC2=C(O)CCC2=O)[C@@H]2O[C@@H]2C1=O  GI50 (SNU-16; cell growth, CellTiter-Glo; 78 h): 10200 nM
Cn1c(Nc2nc3ccc(C(F)(F)F)cc3s2)nc2cc(C(=O)NCCOCCO)ccc21  fold change (SH-SY5Y; RNA-seq, item: UBASH3B mRNA; 5 µM, 5 h; baseline: untreated cells): 3.02
Cc1ccc(NC(=O)c2ccc(CN3CCN(C)CC3)cc2)cc1Nc1nc(-c2cccnc2)cs1  beat amplitude (hiPSC-derived cardiomyocytes (iCell); impedance (xCELLigence Cardio); concentration not given, 2 h; baseline: control): 106%
COc1ccc2c(N(C)c3ccc(/C(C)=N/OCCN)cc3)c3c(Cl)coc3nc2c1  growth inhibition (PC-3, docetaxel-sensitive; trypan blue exclusion; 1 µM, 72 h): ~60%
NC(=O)NOCCCC[P+](c1ccccc1)(c1ccccc1)c1ccccc1.O=C([O-])C(F)(F)F  cell confluence (HCT-116; cell growth, live-cell imaging; 600 µM, control at 90% confluence): 47.2%
CC(=O)O[C@@]12CO[C@@H]1C[C@H](O)[C@@]1(C)C(=O)[C@H](O)C3=C(C)[C@@H](OC(=O)[C@H](O)[C@@H](NC(=O)OC(C)(C)C)c4ccccc4)C[C@@](O)([C@@H](OC(=O)c4ccccc4)[C@H]21)C3(C)C  CD44-positive cells (4T1; flow cytometry; concentration not given, 48 h): 9 ± 0.4%
C=Cc1c2[n-]c(c1C)/C=c1\[n-]/c(c(C)c1C=C)=C\c1[n-]c(c(CCC(=O)O)c1C)/C=c1\[n-]c(c(C)c1CCC(=O)O)=C2.[Sn+4]  fold change (SH-SY5Y; RNA-seq, item: TRAF1 mRNA; 5 µM, 5 h; baseline: untreated cells): 3.75
O=c1cc(-c2ccc(O)cc2)oc2c([C@@H]3OC[C@H](O)[C@H](O)[C@H]3O)c(O)c([C@@H]3O[C@H](CO)[C@@H](O)[C@H](O)[C@H]3O)c(O)c12  autophagosome number (neonatal mouse cardiomyocytes; transmission electron microscopy; dose not given, together with: angiotensin II 80 ng/mL; baseline: angiotensin II alone): increased
O=C(C[C@@H](C(F)F)n1ccc(F)n1)N1CCC(O)(Cn2cnc3c(cnn3-c3ccc(F)cc3)c2=O)CC1  late apoptotic cells (CHP-212 resistant; annexin V/PI flow cytometry; 0.3 µM, 48 h): 7.75% and 6.65% and 6%
CCN(Cc1cc(F)cc(F)c1)c1ccc(CO)c(Cl)c1  IC50 (RBE; cell viability, CellTiter-Glo): 110 nM
COc1cc2ncnc(Nc3ccc(Oc4ccccc4)c(C)c3C)c2cc1OC.Cl  Bliss synergy score (HepG2 (NRAS Q61L); resazurin; concentration not given, 72 h, together with: trametinib; direction not given): -189%
OCc1ccc(-c2ccc(-c3ccc(CO)s3)o2)s1  IC50 (RBE; cell viability, CellTiter-Glo): 120 nM
C[C@H](CCC(=O)NCCS(=O)(=O)O)[C@H]1CC[C@H]2[C@@H]3CC[C@@H]4C[C@H](O)CC[C@]4(C)[C@H]3CC[C@]12C  proliferation increase (human PKD renal epithelial cells; cell confluence; 20 µM, 24 h; baseline: untreated): 49%
OCc1ccc(-c2nn(Cc3ccccc3)c3cccnc23)o1  IC50 (RBE; cell viability, CellTiter-Glo): 2420 nM
CC(C)NCC(O)c1ccc(O)c(O)c1 (stereo not drawn)  sarcomere length (mouse ventricular cardiomyocytes; dose not given, 0.112 s): 1.66 µm
OCc1ccc(-c2nn(Cc3ccccc3)c3ccc(F)cc23)o1  IC50 (RBE; cell viability, CellTiter-Glo): 960 nM
NC(=O)NO  cell confluence (HCT-116; cell growth, live-cell imaging; 100 µM, control at 90% confluence): 67 ± 9.44%

Excerpt of the above:
NC(=O)NOCCCC[P+](c1ccccc1)(c1ccccc1)c1ccccc1.O=C([O-])C(F)(F)F  cell confluence (HCT-116; cell growth, live-cell imaging; 600 µM, control at 90% confluence): 47.2%
CC(=O)O[C@@]12CO[C@@H]1C[C@H](O)[C@@]1(C)C(=O)[C@H](O)C3=C(C)[C@@H](OC(=O)[C@H](O)[C@@H](NC(=O)OC(C)(C)C)c4ccccc4)C[C@@](O)([C@@H](OC(=O)c4ccccc4)[C@H]21)C3(C)C  CD44-positive cells (4T1; flow cytometry; concentration not given, 48 h): 9 ± 0.4%
C=Cc1c2[n-]c(c1C)/C=c1\[n-]/c(c(C)c1C=C)=C\c1[n-]c(c(CCC(=O)O)c1C)/C=c1\[n-]c(c(C)c1CCC(=O)O)=C2.[Sn+4]  fold change (SH-SY5Y; RNA-seq, item: TRAF1 mRNA; 5 µM, 5 h; baseline: untreated cells): 3.75
O=c1cc(-c2ccc(O)cc2)oc2c([C@@H]3OC[C@H](O)[C@H](O)[C@H]3O)c(O)c([C@@H]3O[C@H](CO)[C@@H](O)[C@H](O)[C@H]3O)c(O)c12  autophagosome number (neonatal mouse cardiomyocytes; transmission electron microscopy; dose not given, together with: angiotensin II 80 ng/mL; baseline: angiotensin II alone): increased
O=C(C[C@@H](C(F)F)n1ccc(F)n1)N1CCC(O)(Cn2cnc3c(cnn3-c3ccc(F)cc3)c2=O)CC1  late apoptotic cells (CHP-212 resistant; annexin V/PI flow cytometry; 0.3 µM, 48 h): 7.75% and 6.65% and 6%
CCN(Cc1cc(F)cc(F)c1)c1ccc(CO)c(Cl)c1  IC50 (RBE; cell viability, CellTiter-Glo): 110 nM
COc1cc2ncnc(Nc3ccc(Oc4ccccc4)c(C)c3C)c2cc1OC.Cl  Bliss synergy score (HepG2 (NRAS Q61L); resazurin; concentration not given, 72 h, together with: trametinib; direction not given): -189%
